Results pooled from the literature.
Each numbered part is a random draw from the data of one study; scales do not carry over between parts. “And” joins repeats or separate records; there may be more than shown.

Series 1
Structure (SMILES): Cn1cc(-c2cccc(CN3CCC4(CC3)COc3c4ccc4c3CN([C@H]3CCC(=O)NC3=O)C4=O)c2)cn1
Measurement: intrinsic clearance
sample = rat liver microsomes; result = < 20.7 mL/min/kg
sample = human liver microsomes; result = < 14.5 mL/min/kg
sample = mouse liver microsomes; result = < 45.5 mL/min/kg

Series 2
SMILES: O=C1CC[C@@H](Nc2ccc(N3CCNCC3)c(F)c2)C(=O)N1
Target: Protein cereblon (CRBN, Homo sapiens, UniProt Q96SW2)
Sequence of UniProt Q96SW2 (whole entry, looked up): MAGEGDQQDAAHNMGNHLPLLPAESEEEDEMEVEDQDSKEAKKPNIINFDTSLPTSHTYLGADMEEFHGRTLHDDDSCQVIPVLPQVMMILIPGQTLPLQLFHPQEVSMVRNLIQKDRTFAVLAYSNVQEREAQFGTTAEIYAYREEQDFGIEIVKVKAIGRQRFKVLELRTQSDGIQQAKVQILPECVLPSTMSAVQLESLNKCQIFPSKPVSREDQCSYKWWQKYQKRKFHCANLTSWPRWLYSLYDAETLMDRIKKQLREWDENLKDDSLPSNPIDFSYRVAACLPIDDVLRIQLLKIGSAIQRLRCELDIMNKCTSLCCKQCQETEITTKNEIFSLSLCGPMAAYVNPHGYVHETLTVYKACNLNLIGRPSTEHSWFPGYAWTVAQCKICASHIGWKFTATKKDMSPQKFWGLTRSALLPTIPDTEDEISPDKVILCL
Observed: binding
Measurement: inhibition
concentration = 3333.33 nM; result = 85.7% and 81.9%
concentration = 1111.11 nM; result = 51.9% and 67%
concentration = 10000 nM; result = 97.9% and 94.9%

Series 3
SMILES: C#CCN1C(=O)C(O)(C(=O)O)Oc2cc(F)ccc21 (stereo not drawn)
Organism: Arabidopsis thaliana
Strain: Col-0
Notes: seed germination, single repetition
Measurement: hypocotyl length
concentration = 25 µg/mL; result = 1.47 cm and 1.43 cm and 1.4 cm and 1.41 cm
concentration = 100 µg/mL; result = 0.08 cm and 0.1 cm and 0.12 cm and 0.09 cm
concentration = 3.125 µg/mL; result = 2.14 cm and 2.15 cm and 2.17 cm and 2.25 cm
concentration = 12.5 µg/mL; result = 1.72 cm and 1.65 cm and 1.67 cm and 1.63 cm and 1.83 cm
concentration = 50 µg/mL; result = 0.94 cm and 0.92 cm and 0.88 cm and 0.98 cm

Series 4
Structure (SMILES): Cc1c(NC(=O)c2cccn(-c3ccc(F)cc3)c2=O)ccc(Oc2ccnc(NC(=O)C3CC3)c2)c1C
Cell line: L929
Method: CCK-8
Measurement: viability
observed = necroptosis protection; concentration = 1.25 µM; with = TNF-α-induced; result = 73.2%
concentration = 50 µM; with = zVAD; result = 70.6% and 71.2% and 72.8%
concentration = 50 µM; result = 70.4% and 72.5% and 71.4% and 70.9% and 70.3%
observed = necroptosis protection; concentration = 0.156 µM; with = TNF-α-induced; result = 54.7%
